Experimental data of several laboratories.
Parts stem from different laboratories: compare values within a part only. Changes are numbered by the printed parent chain.

Sample 1
Target: Protein C-ets-1 (ETS1, Homo sapiens, UniProt P14921, residues 1-441, full length assumed)
UniProt P14921, sequence (whole entry, looked up): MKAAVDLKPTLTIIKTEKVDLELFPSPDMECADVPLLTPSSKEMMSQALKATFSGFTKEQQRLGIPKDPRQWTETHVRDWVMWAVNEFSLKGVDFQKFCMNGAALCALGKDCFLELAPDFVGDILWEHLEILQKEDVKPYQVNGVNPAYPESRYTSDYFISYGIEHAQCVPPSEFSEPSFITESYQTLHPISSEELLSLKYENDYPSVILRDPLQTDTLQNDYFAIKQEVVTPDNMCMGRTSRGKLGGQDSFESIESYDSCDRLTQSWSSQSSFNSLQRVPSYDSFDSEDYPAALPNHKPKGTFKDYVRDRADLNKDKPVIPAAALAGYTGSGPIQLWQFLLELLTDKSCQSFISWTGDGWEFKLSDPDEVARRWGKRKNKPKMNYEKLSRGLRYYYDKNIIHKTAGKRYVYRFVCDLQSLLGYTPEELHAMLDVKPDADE
Method: protein-binding microarray
Molecule type: double-stranded DNA, one strand shown
Matrix: in vitro
Concentration: not given
Setting: k-mer, scored over probes, only values ≥0.25
Direction: higher = stronger binding
Oligonucleotide | E-score
AGGATGCA | 0.394
GGACATGA | 0.253
CCTGTCCG | 0.253
CGGAACCG | 0.398
AGCCCCGG | 0.316
GCGGGGAA | 0.255
ATATCCGC | 0.462
GTTTCCTA | 0.338
CCGCCCCG | 0.325

Sample 2
Target: CCNE2, cyclin fold, Cln2 fusion (human)
Method: yeast growth competition, sequencing
Matrix: yeast
Setting: weak parent motif
Reference: not given
Direction: higher = stronger binding
Starting sequence: ORC1 docking peptide (human); PRARKRLELGNLG; partner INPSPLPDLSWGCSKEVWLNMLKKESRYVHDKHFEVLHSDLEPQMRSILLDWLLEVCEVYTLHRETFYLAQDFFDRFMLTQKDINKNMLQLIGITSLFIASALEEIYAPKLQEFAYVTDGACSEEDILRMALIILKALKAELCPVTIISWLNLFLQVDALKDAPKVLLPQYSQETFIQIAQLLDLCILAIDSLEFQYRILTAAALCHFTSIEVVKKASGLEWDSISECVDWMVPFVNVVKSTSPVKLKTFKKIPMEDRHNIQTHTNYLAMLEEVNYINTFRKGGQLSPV
Substitution | normalised enrichment score
PRTRKRLELGNLG [A3T] | 0.971
KRARKRLELGNLG [P1K] | 1.54
PRKRKRLELGNLG [A3K] | 0.593
PRARKRLELGWLG [N11W] | 0.756
DRARKRLELGNLG [P1D] | 1.62
PRHRKRLELGNLG [A3H] | 0.7
MRARKRLELGNLG [P1M] | 0.717
QRARKRLELGNLG [P1Q] | 1.04
PRSRKRLELGNLG [A3S] | 0.775
PRARKRLELGTLG [N11T] | 1.12

Sample 3
Target: ABI1, truncated, D143A, DHFR fusion (Arabidopsis thaliana)
Method: DHFR PCA, deep sequencing
Matrix: yeast
Setting: methotrexate growth selection, single substitutions
Added: (+)-ABA 2500 µM
Reference: wild-type fitted maximum
Direction: higher = stronger binding
Starting sequence: PYL1, truncated, DHFR fusion (Arabidopsis thaliana); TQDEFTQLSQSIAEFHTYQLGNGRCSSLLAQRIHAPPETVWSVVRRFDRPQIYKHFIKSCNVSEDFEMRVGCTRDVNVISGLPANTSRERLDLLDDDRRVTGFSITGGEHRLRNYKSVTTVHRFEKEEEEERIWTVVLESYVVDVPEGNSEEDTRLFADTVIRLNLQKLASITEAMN; partner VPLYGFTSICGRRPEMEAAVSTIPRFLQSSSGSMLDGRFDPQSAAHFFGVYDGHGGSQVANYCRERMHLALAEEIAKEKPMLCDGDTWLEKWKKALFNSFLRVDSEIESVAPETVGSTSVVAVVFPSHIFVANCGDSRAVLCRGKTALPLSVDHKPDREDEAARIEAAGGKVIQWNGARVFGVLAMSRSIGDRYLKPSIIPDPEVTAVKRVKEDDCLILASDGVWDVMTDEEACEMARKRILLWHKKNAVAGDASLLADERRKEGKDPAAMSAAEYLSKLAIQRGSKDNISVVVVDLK
Substitution | relative binding score [%]
M176H | 95.1
S26F | 97.4
L29T | 95.2
W41Y | 82.4
L166T | 29.3
I57V | 95.6
L82M | 92.2
E89T | 3.67
T39G | 90.8

Single results of other studies
Molecule | target | test | system | conditions | how to read | quantity | result
PhoQ, residues 284 288 289 292 302 303 ALAMYF | PhoP, residues 12 14 15 18 19 NFCKL (Escherichia coli, UniProt P23836) | Sort-seq, measured: YFP reporter | E. coli | PhoQ-PhoP variant library, added: 10 µM Mg2+ | reference: high Mg2+ state, higher = stronger signaling | fold induction | 3.45

Repeated from above (sample 1):
Oligonucleotide | E-score
AGGATGCA | 0.394
GGACATGA | 0.253
CCTGTCCG | 0.253
CGGAACCG | 0.398
AGCCCCGG | 0.316
